Experimental data from different studies.
Numbers after ± are the reported error. Converted amounts (≈) assume the structure as drawn.

| SMILES | test | test system | setting | scale | measurement | result |
| --- | --- | --- | --- | --- | --- | --- |
| COc1ccc(C)cc1NC(=O)OC1CC2CCCC(C1)N2Cc1ccc(CC[18F])cc1 (centres unmarked) | – | mouse, fat | 1 h, tumour-bearing | – | tracer uptake | 8.49 %ID/g |
| CCc1c2c(nc3ccc(OC4OC(C(=O)O)C(O)C(O)C4O)cc13)-c1cc3c(c(=O)n1C2)COC(=O)C3(O)CC (centres unmarked) | – | human patients, plasma | intravenous, 75 mg/m^2 of parent drug | – | AUC(0-inf) | 0.583 µg·h/mL |
| CC(C)[C@H](NC(=O)CNC(=O)[C@H](CCC(N)=O)NC(=O)[C@H](C)N)C(=O)O | moderate intensity | human | 10 mg/kg, 3 days, thrice daily dosing | – | subjects with adverse events | 0% |
| CC(=CCC(O)C(C)=Cc1csc(C)n1)CC=CC(C)C(O)C(C)C(=O)C(C)(C)C(O)CC(=O)O (centres unmarked) | – | human, plasma | intravenous infusion, 48 mg/m2 KOS-1584, 3 h infusion, cycle 1 | relative to: metabolite over KOS-1584 | AUC ratio | 9.16 ± 0.84% |
| CN[C@](C)(C[18F])C(=O)O | – | SCID mouse U87 xenograft, lung | 60 min, post injection | – | tissue uptake | 1.9 ± 0.8 %ID/g |
| C/C=C/C=C/C/C=C/CCCCCCCc1cccc(O)c1O | – | female Kunming mice tumour-bearing, kidneys | intravenous, 10 mg/kg, 2 h | – | tissue concentration | 11600 ± 1140 ng/g |
| [2H]C([2H])([2H])C([2H])([2H])C([2H])([2H])OC(C(=O)OC1CCNCC1)(c1ccccc1)c1ccccc1 | refers to: upper respiratory tract infection | healthy Japanese male | oral, 12 mg once daily, 16 days | – | adverse drug reactions | 0% |
| CN(C)C(CNC(=O)Nc1cc(C(F)(F)F)ccc1N1CCOCC1)c1ccncc1 (centres unmarked) | – | mouse, serum | intraperitoneal, 120 mg/kg single dose | – | serum iron | 162 µg/dL |
| CC(C)C[C@@H](NC(=O)[C@@H](C)NC(=O)[C@@H](CC(C)C)NC(=O)[C@@H](CCCCN)NC(=O)[C@H](N)CCCCN)C(=O)N[C@H](C)C(=O)N[C@H](CC(C)C)C(=O)N[C@H](C)C(=O)N[C@H](CCCCN)C(=O)N[C@H](CCCCN)C(=O)N[C@H](Cc1c[nH]c2ccccc12)C(=O)N[C@H](CC(C)C)C(=O)N[C@H](C)C(=O)N[C@H](CC(C)C)C(=O)N[C@H](C)C(=O)N[C@H](CCCCN)C(=O)N[C@H](CCCCN)C(=O)N[C@H](CC(C)C)C(=O)N[C@H](C)C(=O)N[C@H](CC(C)C)C(=O)N[C@H](C)C(=O)N[C@H](CC(C)C)C(=O)N[C@H](C)C(=O)N[C@H](CCCCN)C(=O)N[C@H](CCCCN)C(N)=O | haemolysis | human erythrocytes | 30 min, pH 7.4, 37 °C | – | HC50 | 17.4 ± 2.17 µM |
| C[S]1CC[S]2CC[P](CO)(CO)[99Tc+]12.[C-]#[O+].[C-]#[O+].[C-]#[O+] | – | CF-1 mouse | intravenous, 4 h | – | uptake in large intestine | 52.4 %ID |
| CCCCCCCCCCCCC(=O)O.O=C1CCCC2C3CCCN4CCCC(CN12)C34 (centres unmarked) | electrical conductivity | water | 308.15 K, critical micelle concentration | – | standard enthalpy of micellization | -3.7 kJ/mol |
| CSCC[C@@H]1NC(=O)[C@@H]2CSSC[C@H](NC(=O)[C@H](CO)NC(=O)[C@H](C)N)C(=O)N[C@@H](CCCNC(=N)N)C(=O)N[C@@H]([C@@H](C)O)C(=O)N3CCC[C@H]3C(=O)N[C@@H](CCCCN)C(=O)N[C@@H](CC(=O)O)C(=O)N[C@H]3CSSC[C@H](NC(=O)[C@H](CCCCN)NC(=O)[C@H](CCCNC(=N)N)NC(=O)[C@H](CC(N)=O)NC1=O)C(=O)N[C@@H](CCCCN)C(=O)N[C@H]1CSSC[C@H](NC(=O)[C@@H]4CCCN4C(=O)[C@H](CC(=O)O)NC(=O)[C@H](C)NC3=O)C(=O)N[C@@H](C)C(=O)N[C@@H](CCCCN)C(=O)N[C@@H](CCC(=O)O)C(=O)N[C@@H]([C@@H](C)O)C(=O)NCC(=O)N[C@@H](CSSC[C@@H](C(N)=O)NC(=O)[C@H](CCCNC(=N)N)NC(=O)[C@H](CC(N)=O)NC1=O)C(=O)N1CCC[C@H]1C(=O)N[C@@H](Cc1ccc(O)cc1)C(=O)NCC(=O)N[C@@H](CCCCN)C(=O)N2 | – | DA rat, pristane-induced arthritis, serum | subcutaneous, 0.1 mg/kg single dose at onset, 21 days | – | total protein | 4.92 g/dL |
| CC[C@H](C)C(=O)N1CCC(NC(=O)Nc2ccc(OC(F)(F)F)c(F)c2)CC1 | – | healthy volunteers | oral, 2 mg single dose | – | subjects with UTI TEAE | 0% |
| O=C([O-])C[N+]12CC(=O)[O][Re-2]1[O]P(=O)([O-])C2.[C-]#[O+].[C-]#[O+].[C-]#[O+] (centres unmarked) | HPLC | aqueous solution | 1 d, pH 6, room temperature | – | isomer fraction at equilibrium | 48% |
| CC(C)C[C@@H]1NC(=O)[C@@H](Cc2ccccc2)NC(=O)[C@H](CCN)NC(=O)[C@@H](NC(=O)[C@H](CN)NC(=O)[C@@H](NC(=O)CC(CN)Cc2ccccc2)[C@@H](C)O)CCNC(=O)[C@H]([C@@H](C)O)NC(=O)[C@H](CCN)NC(=O)[C@H](CCN)NC1=O (some centres unmarked) | ELISA | male CD-1 mouse, urine | subcutaneous, 25 mg/kg, 4 doses every 8 h, 24 h urine collection, nephrotoxicity | – | urinary albumin excretion | 749 µg/24 h |
| N=C(N)NCc1ccc(C(=O)NCCCC[C@H](NC(=O)N[C@@H](CCC(=O)O)C(=O)O)C(=O)O)cc1[211At] | – | SCID mouse, PC-3 xenografts, muscle | 21 h | – | tissue uptake | 0.09 ± 0.01 %ID/g |
| CSCC[C@H](NC(=O)CNC(=O)[C@H](CC(=O)O)NC(=O)[C@@H](NC(=O)[C@@H](NC(=O)[C@@H](NC(=O)CNC(=O)[C@H](CCC(N)=O)NC(=O)[C@H](CCSC)NC(=O)[C@H](CC(=O)O)NC(=O)[C@H](C)NC(=O)[C@H](C)NC(=O)[C@@H](NC(=O)[C@H](CO)NC(=O)[C@@H](N)CC(C)C)[C@@H](C)O)C(C)C)C(C)C)[C@@H](C)O)C(=O)N[C@@H](C)C(=O)N[C@@H](CO)C(=O)NCC(=O)N[C@@H](CC(C)C)C(=O)N[C@@H](CC(=O)O)C(=O)N[C@@H](CCCCN)C(=O)N[C@@H](CC(=O)O)C(=O)N[C@@H](Cc1ccc(O)cc1)C(=O)N[C@@H](CC(C)C)C(=O)N[C@@H](CCCCN)C(=O)N1CCC[C@H]1C(=O)N[C@@H](CC(=O)O)C(=O)N[C@@H](CC(=O)O)C(=O)O | – | human, serum | intravenous, 2.5 mg/kg, patients, infusion | – | half-life | 6.12 min |
| CN(C)c1ccc(C(=O)NCCCCN2CCN(c3ccccc3O[11CH3])CC2)cc1 | – | male Sprague Dawley rat, muscle | iv, dose not given, together with: cyclosporin A pretreatment | relative to: cyclosporin A over untreated | uptake ratio | 1.18 |
| CC(=O)Oc1c2c(c3ccc4c(c3c1OC(C)=O)C=CC(=O)C4(C)C)OC[C@@H]2C | – | BALB/c mice | intravenous, 50 and 25 mg/kg, body weight, organs, blood | – | acute toxicity | no effect |
| O=C(c1ccc(F)cc1)C1CCN(C2Cc3c(cccc3OCC[18F])CC2O)CC1 (single isomer, unassigned; (-)) | – | male Sprague-Dawley rat, striatum | intravenous, 60 min | – | brain uptake | 0.819 %ID/g |
| O=C(CN1CCN(c2cc3c(cc2F)c(=O)c(C(=O)O)cn3C2CC2)CC1)Nc1ccc(Cl)cc1 | – | BALB/c mouse, female | intravenous, 3.75 mg/kg | – | distribution half-life | 19 min |
| Cc1ccc(/C=C/C(=O)O)cc1-c1cc2c(cc1C)C(C)(C)CCC2(C)C | – | Sprague-Dawley rat, male | oral, 100 mg/kg, 2 h, sesame oil vehicle | – | blood cholesterol | 87 ± 4.9 mg/dL |
| O=c1c2ccccc2[se]n1CCCCn1[se]c2ccccc2c1=O | – | 20% Soluplus in water | 24 h, 25 °C, 200 mg/mL | – | solubility | 0.575 ± 0.034 mg/mL (≈ 1280 µM) |
| CC(C)[C@H]1NC(=O)C[C@H]2/C=C/CCSSC[C@@H](NC1=O)C(=O)N[C@H](Cc1cccc3ccccc13)C(=O)NCC(=O)O2 | – | nude mouse, blood | intravenous, 4 mg/kg | – | AUC(0-inf) | 0.0111 µg·h/mL |
| O=c1cc(-c2ccccc2)oc2c(Br)c(O)c(O)c(O)c12 | – | C57BL/6 mouse, plasma | intravenous, 10 mg/kg, single dose | – | clearance | 1.35 mL/min |
| O=C(CCCCCCC(=O)Nc1ccc(N=Nc2ccccc2)cc1)NO | 1H NMR | DMSO | irradiation 365 nm | – | cis isomer content | 95% |
| CC(C)C[C@H](NC(=O)[C@H](CCCCN)NC(=O)[C@H](CCC(=O)O)NC(=O)[C@H](C)NC(=O)[C@@H](NC(=O)[C@H](CCCCN)NC(=O)[C@H](CC(=O)O)NC(=O)[C@H](Cc1ccc(O)cc1)NC(=O)[C@H](Cc1ccccc1)NC(=O)[C@H](C)NC(=O)[C@H](CCCCN)NC(=O)[C@H](CC(C)C)NC(=O)[C@H](Cc1c[nH]c2ccccc12)NC(=O)[C@@H](N)CC(=O)O)C(C)C)C(=O)N[C@@H](CCCCN)C(=O)N[C@@H](CCC(=O)O)C(=O)N[C@@H](C)C(=O)N[C@@H](Cc1ccccc1)C(=O)N1CCC[C@H]1C(=O)N[C@@H](CC(=O)O)C(=O)N[C@@H](Cc1c[nH]c2ccccc12)C(=O)N[C@@H](C)C(=O)N[C@@H](CCCCN)C(=O)N[C@@H](C)C(=O)N[C@@H](C)C(=O)N[C@@H](Cc1ccc(O)cc1)C(=O)N[C@@H](CC(=O)O)C(=O)N[C@@H](CCCCN)C(=O)N[C@@H](C)C(=O)N[C@@H](C)C(=O)N[C@@H](CCC(=O)O)C(=O)N[C@@H](CCCCN)C(=O)N[C@@H](C)C(=O)N[C@@H](CCCCN)C(=O)N[C@@H](CCC(=O)O)C(=O)N[C@@H](C)C(=O)N[C@@H](C)C(=O)O | – | cynomolgus monkey female, plasma | intravenous infusion, 8 mg/kg, day 1, 30 min infusion | – | AUC(0-last) | 430 µg·h/mL |
| COC(=O)C[C@](O)(CCCC(C)(C)OC(C)=O)C(=O)O[C@@H]1C(OC)=C[C@]23CCCN2CCc2cc4c(cc2[C@H]13)OCO4 | – | CD1 mouse, lung | subcutaneous, 1 mg/kg, 8 h, below quantification limit 1.00 ng/mL | – | tissue concentration | not detected |
| NC(=O)[C@@H](Cc1ccccc1)N[11C](=O)OCc1ccccc1 | PET | male Wistar rat | intravenous, 10 min, together with: self-blocking 3 µmol/kg i.v. 3 min before | – | spinal cord SUV | 1 SUV |

Some of these lines once more:
| SMILES | test | test system | setting | scale | measurement | result |
| --- | --- | --- | --- | --- | --- | --- |
| C[S]1CC[S]2CC[P](CO)(CO)[99Tc+]12.[C-]#[O+].[C-]#[O+].[C-]#[O+] | – | CF-1 mouse | intravenous, 4 h | – | uptake in large intestine | 52.4 %ID |
| CC(=CCC(O)C(C)=Cc1csc(C)n1)CC=CC(C)C(O)C(C)C(=O)C(C)(C)C(O)CC(=O)O (centres unmarked) | – | human, plasma | intravenous infusion, 48 mg/m2 KOS-1584, 3 h infusion, cycle 1 | relative to: metabolite over KOS-1584 | AUC ratio | 9.16 ± 0.84% |
